Measured values of several laboratories.
Every numbered part comes from another study and shows a few of its results, in no order. “And” joins repeats or separate records; there may be more than shown.
UniProt Q06187, sequence (whole entry, looked up): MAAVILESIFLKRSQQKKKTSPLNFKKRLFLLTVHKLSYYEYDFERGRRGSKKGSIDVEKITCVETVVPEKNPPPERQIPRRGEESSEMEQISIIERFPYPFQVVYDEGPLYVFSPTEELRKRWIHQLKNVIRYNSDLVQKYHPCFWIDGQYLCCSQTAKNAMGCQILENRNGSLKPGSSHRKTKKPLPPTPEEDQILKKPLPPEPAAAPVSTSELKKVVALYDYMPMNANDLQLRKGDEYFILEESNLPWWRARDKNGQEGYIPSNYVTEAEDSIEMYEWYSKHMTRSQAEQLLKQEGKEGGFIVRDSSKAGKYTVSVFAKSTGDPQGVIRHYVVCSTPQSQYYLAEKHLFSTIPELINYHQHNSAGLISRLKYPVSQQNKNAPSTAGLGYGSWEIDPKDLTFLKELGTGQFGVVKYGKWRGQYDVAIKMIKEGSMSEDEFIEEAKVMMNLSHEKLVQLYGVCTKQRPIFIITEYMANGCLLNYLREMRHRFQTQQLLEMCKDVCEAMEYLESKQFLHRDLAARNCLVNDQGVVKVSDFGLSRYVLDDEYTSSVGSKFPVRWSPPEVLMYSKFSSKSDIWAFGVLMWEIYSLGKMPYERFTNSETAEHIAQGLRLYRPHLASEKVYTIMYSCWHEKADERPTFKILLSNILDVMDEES
UniProt Q8IWQ3, sequence (whole entry, looked up): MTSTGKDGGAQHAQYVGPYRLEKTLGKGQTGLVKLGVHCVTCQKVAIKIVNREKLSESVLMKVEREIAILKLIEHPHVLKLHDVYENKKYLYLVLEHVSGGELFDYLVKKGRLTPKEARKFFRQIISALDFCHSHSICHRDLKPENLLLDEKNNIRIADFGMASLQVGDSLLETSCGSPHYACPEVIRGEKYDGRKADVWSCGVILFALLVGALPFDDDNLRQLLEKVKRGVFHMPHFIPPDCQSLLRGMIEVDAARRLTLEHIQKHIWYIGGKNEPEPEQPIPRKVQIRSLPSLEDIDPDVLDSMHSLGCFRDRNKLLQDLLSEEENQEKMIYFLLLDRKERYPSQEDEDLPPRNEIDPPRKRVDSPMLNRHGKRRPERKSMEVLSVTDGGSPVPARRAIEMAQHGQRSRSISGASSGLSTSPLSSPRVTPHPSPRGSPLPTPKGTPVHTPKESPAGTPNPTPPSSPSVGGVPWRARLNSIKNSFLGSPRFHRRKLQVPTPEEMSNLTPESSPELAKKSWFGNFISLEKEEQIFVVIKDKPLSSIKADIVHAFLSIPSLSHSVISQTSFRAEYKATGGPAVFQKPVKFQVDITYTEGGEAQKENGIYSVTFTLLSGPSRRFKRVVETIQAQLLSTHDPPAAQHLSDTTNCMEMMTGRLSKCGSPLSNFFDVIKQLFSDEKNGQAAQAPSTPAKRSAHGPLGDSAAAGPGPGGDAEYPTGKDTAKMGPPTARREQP

Sample 1
Target: DNA polymerase theta, ATPase domain (POLQ, Homo sapiens, UniProt O75417)
UniProt O75417, sequence (whole entry, unmodified, looked up): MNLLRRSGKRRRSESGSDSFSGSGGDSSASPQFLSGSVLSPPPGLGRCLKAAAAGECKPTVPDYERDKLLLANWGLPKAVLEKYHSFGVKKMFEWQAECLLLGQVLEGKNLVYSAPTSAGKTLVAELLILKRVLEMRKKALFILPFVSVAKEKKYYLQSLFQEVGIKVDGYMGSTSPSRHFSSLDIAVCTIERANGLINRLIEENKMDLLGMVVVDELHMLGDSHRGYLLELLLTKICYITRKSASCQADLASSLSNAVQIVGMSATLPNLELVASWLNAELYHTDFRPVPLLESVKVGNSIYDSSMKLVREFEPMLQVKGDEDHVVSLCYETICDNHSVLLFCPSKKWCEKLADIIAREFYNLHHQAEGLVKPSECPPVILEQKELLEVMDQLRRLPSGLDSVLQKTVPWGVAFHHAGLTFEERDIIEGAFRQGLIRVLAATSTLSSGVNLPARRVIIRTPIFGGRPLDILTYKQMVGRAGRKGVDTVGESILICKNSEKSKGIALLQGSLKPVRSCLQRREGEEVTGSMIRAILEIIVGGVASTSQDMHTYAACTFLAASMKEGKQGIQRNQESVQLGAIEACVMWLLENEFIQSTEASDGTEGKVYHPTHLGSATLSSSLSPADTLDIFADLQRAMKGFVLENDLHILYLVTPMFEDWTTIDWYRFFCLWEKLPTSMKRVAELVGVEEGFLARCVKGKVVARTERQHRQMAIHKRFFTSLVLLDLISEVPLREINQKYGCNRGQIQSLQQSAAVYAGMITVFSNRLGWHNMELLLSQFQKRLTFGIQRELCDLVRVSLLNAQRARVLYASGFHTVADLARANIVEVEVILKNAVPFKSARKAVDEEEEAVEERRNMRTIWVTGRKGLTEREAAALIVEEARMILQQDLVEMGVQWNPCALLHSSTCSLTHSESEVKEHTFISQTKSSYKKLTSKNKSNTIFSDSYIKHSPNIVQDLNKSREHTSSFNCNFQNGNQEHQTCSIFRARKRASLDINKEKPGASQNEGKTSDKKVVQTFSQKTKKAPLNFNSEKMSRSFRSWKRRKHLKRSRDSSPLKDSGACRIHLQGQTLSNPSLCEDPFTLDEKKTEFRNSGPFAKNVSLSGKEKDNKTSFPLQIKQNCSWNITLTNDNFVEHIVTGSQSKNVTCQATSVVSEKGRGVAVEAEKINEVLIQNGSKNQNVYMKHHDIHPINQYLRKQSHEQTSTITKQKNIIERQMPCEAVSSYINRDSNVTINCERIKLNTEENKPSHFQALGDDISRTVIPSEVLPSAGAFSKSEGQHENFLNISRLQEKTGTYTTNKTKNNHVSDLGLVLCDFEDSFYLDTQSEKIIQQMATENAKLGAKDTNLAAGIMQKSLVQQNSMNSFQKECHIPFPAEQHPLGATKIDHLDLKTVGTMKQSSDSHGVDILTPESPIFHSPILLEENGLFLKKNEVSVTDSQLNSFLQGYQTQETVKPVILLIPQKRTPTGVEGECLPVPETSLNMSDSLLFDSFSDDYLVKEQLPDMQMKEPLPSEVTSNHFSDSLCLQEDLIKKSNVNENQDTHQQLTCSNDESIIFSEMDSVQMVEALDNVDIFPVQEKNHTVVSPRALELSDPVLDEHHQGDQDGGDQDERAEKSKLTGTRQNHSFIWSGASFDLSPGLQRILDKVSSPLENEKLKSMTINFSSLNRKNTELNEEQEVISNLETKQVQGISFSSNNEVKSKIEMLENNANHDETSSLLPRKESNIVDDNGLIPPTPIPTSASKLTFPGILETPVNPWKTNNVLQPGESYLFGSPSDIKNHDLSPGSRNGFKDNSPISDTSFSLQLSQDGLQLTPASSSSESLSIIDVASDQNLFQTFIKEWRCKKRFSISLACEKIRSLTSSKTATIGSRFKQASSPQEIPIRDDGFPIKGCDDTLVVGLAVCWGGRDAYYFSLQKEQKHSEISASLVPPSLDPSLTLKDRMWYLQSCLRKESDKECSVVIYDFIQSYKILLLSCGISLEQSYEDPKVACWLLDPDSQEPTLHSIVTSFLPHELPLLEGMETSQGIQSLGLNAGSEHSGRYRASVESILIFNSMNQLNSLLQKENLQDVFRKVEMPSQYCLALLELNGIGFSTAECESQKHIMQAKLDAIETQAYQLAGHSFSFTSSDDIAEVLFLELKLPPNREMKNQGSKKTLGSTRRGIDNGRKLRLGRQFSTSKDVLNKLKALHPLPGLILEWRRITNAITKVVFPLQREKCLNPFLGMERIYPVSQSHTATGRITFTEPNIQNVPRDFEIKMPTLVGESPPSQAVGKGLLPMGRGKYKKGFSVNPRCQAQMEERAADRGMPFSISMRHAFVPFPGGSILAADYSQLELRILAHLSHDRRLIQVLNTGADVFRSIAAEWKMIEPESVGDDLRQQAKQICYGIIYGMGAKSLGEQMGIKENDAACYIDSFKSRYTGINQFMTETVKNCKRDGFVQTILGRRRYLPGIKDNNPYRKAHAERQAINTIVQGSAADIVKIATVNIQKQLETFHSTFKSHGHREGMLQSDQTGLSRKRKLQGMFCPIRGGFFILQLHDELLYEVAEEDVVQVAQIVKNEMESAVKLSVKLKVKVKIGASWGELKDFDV
Effect on: enzyme activity
Action: inhibitor
Tested at: 77 µM
Reference: untreated
With Cc1[nH]c2ccc(O)cc2c1CCN the remaining activity was 107%.
CC[C@H]1[C@@H]2C[C@H]3[C@@H]4N(C)c5ccccc5[C@]45C[C@@H]([C@H]2[C@H]5O)N3[C@@H]1O has a remaining activity of 101%.
With C[C@]12CC[C@H](O)CC1=CC[C@@H]1[C@@H]2CC[C@]2(C)C(=O)CC[C@@H]12 the remaining activity was 101%.

Sample 2
SMILES: Cn1cncc1[C@](O)(COc1ccc(C#N)cc1-c1ccc(OC(F)(F)F)cc1)c1ccc(C#N)cc1
Effect on: binding
Technique: competition with immobilised ligand
It gave > 10 µM for Kd (Cyclin-dependent kinase 7 (CDK7, Homo sapiens, UniProt P50613)).
It gave > 10 µM for Kd (G protein-coupled receptor kinase 3 (GRK3, Homo sapiens, UniProt P35626)).
It gave > 10 µM for Kd (Serine/threonine-protein kinase BRSK2 (BRSK2, Homo sapiens, UniProt Q8IWQ3)).
For Calcium/calmodulin-dependent protein kinase type 1B (PNCK, Homo sapiens, UniProt Q6P2M8): Kd read > 10 µM.

Sample 3
Target: Eukaryotic initiation factor 4A-III (Homo sapiens, UniProt P38919)
UniProt P38919, sequence (whole entry, looked up): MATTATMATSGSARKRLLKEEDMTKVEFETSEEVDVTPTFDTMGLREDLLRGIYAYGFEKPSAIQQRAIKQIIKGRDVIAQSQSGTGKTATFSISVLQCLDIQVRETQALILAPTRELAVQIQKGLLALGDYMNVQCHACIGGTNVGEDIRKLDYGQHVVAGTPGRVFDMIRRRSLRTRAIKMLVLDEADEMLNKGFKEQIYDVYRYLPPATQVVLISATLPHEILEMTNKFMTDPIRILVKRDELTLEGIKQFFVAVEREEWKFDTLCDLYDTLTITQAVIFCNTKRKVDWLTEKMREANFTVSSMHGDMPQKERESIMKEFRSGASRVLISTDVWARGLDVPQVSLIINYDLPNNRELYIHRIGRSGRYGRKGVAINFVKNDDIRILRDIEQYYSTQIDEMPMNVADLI
Effect on: RNA clamping
Technique: fluorescence polarization
Tested at: concentration not given
Setting: mean of two replicates
Together with: FAM-labelled poly r(AG)8 RNA
Under “fluorescence polarization change”, CCOc1ccccc1-c1nc2c(c(=O)[nH]1)[C@@H](c1ccccc1)[C@]1(c3ccc(OC)cc3)Oc3cc(OC)cc(OC)c3[C@]21O is recorded as 40 mP.
For COc1ccc([C@@]23Oc4cc(OC)cc(OC)c4[C@]2(O)c2nc(-c4ccc(OCc5ccccc5)cc4)[nH]c(=O)c2[C@H]3c2ccccc2)cc1, “fluorescence polarization change” read 2.1 mP.
COCCN[C@]12c3c(OC)cc(OC)cc3O[C@@]1(c1ccc(OC)cc1)[C@H](c1ccccc1)[C@@H](C(=O)N(C)C)[C@H]2O — result for “fluorescence polarization change”: 3.9 mP.
For COCC1=N[C@@]2(O)[C@H](C(=O)OC)[C@@H](c3ccccc3)[C@]3(c4ccc(OC)cc4)Oc4cc(OC)cc(OC)c4[C@]23N1, “fluorescence polarization change” read 42.8 mP and 31.4 mP.
For COc1cc(F)cc2c1[C@]1(O)[C@H](O)[C@H](/C(N)=N/O)[C@@H](c3ccccc3)[C@]1(c1ccc(Br)cc1)O2, “fluorescence polarization change” read 41.1 mP.
For COC(=O)[C@@H]1[C@@H](c2ccccc2)[C@]2(c3ccc(Br)cc3)Oc3cc(OC)cc(OC)c3[C@@]1(O)C2(O)O, “fluorescence polarization change” read 4.4 mP.
For COC(=O)[C@H]1[C@H](c2ccccc2)[C@@]2(c3ccc(OC)cc3)Oc3cc(OC)cc(OC)c3[C@]1(O)[C@H]2O, “fluorescence polarization change” read 0.5 mP.
COc1ccc([C@@]23Oc4cc(OC)cc(OC)c4[C@]2(O)c2nc(-c4cccc(C)c4)[nH]c(=O)c2[C@H]3c2ccccc2)cc1 — result for “fluorescence polarization change”: 11.2 mP.
COC(=O)[C@@H]1[C@@H](c2ccccc2)[C@]2(c3ccc(OC)cc3)Oc3cc(OC)cc(OC)c3[C@@]23N=C(C2CC2)N[C@@]13O — result for “fluorescence polarization change”: 65.5 mP and 30 mP.
COc1ccc([C@@]23Oc4cc(OC)cc(OC)c4[C@@]24NC(C2CC2)=N[C@@]4(O)[C@H](C(=O)N(C)OC)[C@H]3c2ccccc2)cc1: “fluorescence polarization change” 49.6 mP.

Sample 4
Target: Calcium/calmodulin-dependent protein kinase type II subunit alpha (CAMK2A, Homo sapiens, UniProt Q9UQM7)
UniProt Q9UQM7, sequence (whole entry, looked up): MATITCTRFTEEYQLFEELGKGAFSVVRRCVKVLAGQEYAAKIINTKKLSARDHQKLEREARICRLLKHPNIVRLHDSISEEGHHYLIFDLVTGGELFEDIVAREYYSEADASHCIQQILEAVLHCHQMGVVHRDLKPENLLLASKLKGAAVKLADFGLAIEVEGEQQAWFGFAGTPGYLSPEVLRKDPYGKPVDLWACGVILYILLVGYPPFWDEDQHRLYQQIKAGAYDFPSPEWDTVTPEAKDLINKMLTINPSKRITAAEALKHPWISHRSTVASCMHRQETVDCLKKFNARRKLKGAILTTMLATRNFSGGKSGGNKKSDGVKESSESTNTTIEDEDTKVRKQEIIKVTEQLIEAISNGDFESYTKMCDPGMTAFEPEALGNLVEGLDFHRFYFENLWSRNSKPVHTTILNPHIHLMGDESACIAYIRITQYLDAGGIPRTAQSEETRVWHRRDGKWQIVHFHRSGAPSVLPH
Effect on: enzyme activity
Action: inhibitor
Tested at: 10 µM
For CN1CCc2cc3c(cc2[C@H]1[C@@H]1OC(=O)c2c1ccc1c2OCO1)OCO3, the inhibition was -17%.
C/C=C(\C)C(=O)N[C@@H](c1ccccc1)[C@@H](O)C(=O)O[C@H]1C[C@@]2(O)[C@@H](OC(=O)c3ccccc3)[C@@H]3[C@]4(OC(C)=O)CO[C@@H]4C[C@H](O)[C@@]3(C)C(=O)[C@H](OC(C)=O)C(=C1C)C2(C)C gave an inhibition of 1%.
With O=C1CCC[C@@H]2[C@H]3CCCN4CCC[C@@H](CN12)[C@H]34 the inhibition was 6%.
S=C=NCc1ccccc1 has an inhibition of -6%.
With C=C(C)C(=O)O[C@H]1[C@@H]2[C@H](C)C(=O)O[C@@H]2C[C@@H](C)[C@@H]2C=CC(=O)[C@]21C the inhibition was 18%.
For OCCOc1ccccc1, the inhibition was 2%.
The inhibition of CC1=C2C[C@H]3[C@@H](CC=C4C[C@@H](O)CC[C@@]43C)[C@@H]2CC[C@]12O[C@@H]1C[C@H](C)CN[C@H]1[C@H]2C is reported as 8%.

Sample 5
SMILES: CCn1cnc2c(Nc3cccc(Cl)c3)nc(N[C@H]3CCCC[C@H]3N)nc21
Effect on: enzyme activity
Action: inhibitor
Tested at: 0.5 µM
The remaining activity was 89.3% (Dual specificity protein kinase CLK1 (CLK1, Homo sapiens, UniProt P49759)).
For Mitogen-activated protein kinase 13 (MAPK13, Homo sapiens, UniProt O15264); reference: control: remaining activity read 102%.
The remaining activity was 96.8% (Serine/threonine-protein kinase Nek4 (NEK4, Homo sapiens, UniProt P51957); reference: control).
It gave 101% for remaining activity (Mast/stem cell growth factor receptor Kit (KIT, Homo sapiens, UniProt P10721); reference: control).
The remaining activity was 94.1% (Serine/threonine-protein kinase WNK2 (WNK2, Homo sapiens, UniProt Q9Y3S1); reference: control).
It gave 53.7% for remaining activity (Cyclin-dependent kinase 9, with cyclin T1 (CDK9, Homo sapiens, UniProt P50750); reference: control).
For Serine/threonine-protein kinase PLK2 (PLK2, Homo sapiens, UniProt Q9NYY3); reference: control: remaining activity read 95.8%.
It gave 87.4% for remaining activity (Mitogen-activated protein kinase kinase kinase kinase 2 (MAP4K2, Homo sapiens, UniProt Q12851); reference: control).
The remaining activity was 93.5% (MAP kinase-interacting serine/threonine-protein kinase 2 (MKNK2, Homo sapiens, UniProt Q9HBH9); reference: control).
The remaining activity was 84.2% (Casein kinase II subunit alpha (CSNK2A1, Homo sapiens, UniProt P68400); reference: control).
For Ephrin type-A receptor 5 (EPHA5, Homo sapiens, UniProt P54756); reference: control: remaining activity read 73.9%.
cGMP-dependent protein kinase 1 (PRKG1, Homo sapiens, UniProt Q13976); reference: control — remaining activity: 91.4%.
For Serine/threonine-protein kinase 33 (STK33, Homo sapiens, UniProt Q9BYT3); radiometric: remaining activity read 88.9%.
For Mitogen-activated protein kinase 12 (MAPK12, Homo sapiens, UniProt P53778); reference: control: remaining activity read 96.6%.
The remaining activity was 100% (Dual specificity mitogen-activated protein kinase kinase 6 (MAP2K6, Homo sapiens, UniProt P52564); reference: control).
The remaining activity was 98.7% (Casein kinase I isoform alpha (CSNK1A1, Homo sapiens, UniProt P48729); reference: control).
Serine/threonine-protein kinase Chk1 (CHEK1, Homo sapiens, UniProt O14757); reference: control — remaining activity: 85.8%.
Leucine-rich repeat serine/threonine-protein kinase 2 (LRRK2, Homo sapiens, UniProt Q5S007); reference: control — remaining activity: 70%.
For Tyrosine-protein kinase BTK (BTK, Homo sapiens, UniProt Q06187); reference: control: remaining activity read 82.5%.
For RAC-gamma serine/threonine-protein kinase (AKT3, Homo sapiens, UniProt Q9Y243); reference: control: remaining activity read 95.8%.
The remaining activity was 94.8% (Interleukin-1 receptor-associated kinase 4 (IRAK4, Homo sapiens, UniProt Q9NWZ3); reference: control).
It gave 92.9% for remaining activity (Mitogen-activated protein kinase kinase kinase 10 (MAP3K10, Homo sapiens, UniProt Q02779); reference: control).
The remaining activity was 91.2% (Protein kinase C delta type (PRKCD, Homo sapiens, UniProt Q05655); reference: control).
It gave 67.3% for remaining activity (Tyrosine-protein kinase Lyn (LYN, Homo sapiens, UniProt P07948); reference: control).
Protein kinase C iota type (PRKCI, Homo sapiens, UniProt P41743); reference: control — remaining activity: 99.7%.

Sample 6
Cell line: mouse MPNST tumor cells
Technique: high-content nuclear imaging
Measured: cell number
Tested at: 10 µM
Time: 12 h
Setting: mean of 2 replicates
Reference: plate mean
Reading: higher = more cells
With CCCN1CCC[C@@H]2Cc3n[nH]cc3C[C@H]21 the nuclei count was 1.02 z-score.
The nuclei count of COc1ccc2[nH]c(-c3ccccc3)c(CCN(C)C)c2c1 is reported as 1.21 z-score.
For CC(=O)O[C@H]1CC[C@@]2(C)C(=CC[C@@H]3[C@@H]2CC[C@]2(C)C(=O)CC[C@@H]32)C1, the nuclei count was 0.512 z-score.
The nuclei count of N#Cc1cn([C@@H]2O[C@H](CO)[C@@H](O)[C@H]2O)c2ncnc(N)c12 is reported as -4.57 z-score.
The nuclei count of Cc1cccc(C)c1NC1=NCCCS1 is reported as 1.03 z-score.
The nuclei count of CN1C(=O)C(Cc2ccc3ccccc3c2)N=C(c2ccc(O)cc2)c2cc(Cl)ccc21 (centres unmarked) is reported as 4.1 z-score.
The nuclei count of Cc1cc(SCc2sc(-c3ccc(C(F)(F)F)c(F)c3)nc2C)ccc1OCC(=O)O is reported as 1.53 z-score.
